# Measurements gathered from unrelated publications.
# Lines come from different studies, so protocols differ. ± gives the spread as reported.
Structure (SMILES),target or system,assay,system,setting,endpoint,value
Cn1c(=O)oc2ccc(-c3ccc(CC(C#N)NC(=O)C4CNCCCO4)c(F)c3)cc21 (stereo not shown),,refers to: monocyte count increased,human,"80 mg single dose, fasted",subjects with TEAE,16.7%
CCCC[C@@H]1NC(=O)[C@@H](NC(=O)[C@H](CCC(=O)O)NC(=O)CNC(=O)CN2CCN(CC(=O)O)CCN(CC(=O)O)CCN(CC(=O)O)CC2)CCCCNC(=O)C[C@@H](C(N)=O)NC(=O)[C@H](C(C)C)NC(=O)[C@@H]2CCCN2C(=O)[C@H](CCCNC(=N)N)NC(=O)CNC(=O)[C@H](Cc2c[nH]c3ccccc23)NC(=O)[C@H](CCCNC(=N)N)NC(=O)[C@@H](Cc2ccccc2)NC(=O)[C@H](Cc2c[nH]cn2)NC(=O)[C@H](CCC(=O)O)NC1=O [gallium-67 labelled],,,"C57 mice with B16/F1 melanoma, brain","intravenous, 4 h",tissue uptake,0.01 %ID/g
CCCC[C@H](NC(=O)CNC(=O)CNC(=O)CN1CCN(CC(=O)O)CCN(CC(=O)O)CCN(CC(=O)O)CC1)C(=O)N[C@H]1CC(=O)NCCCC[C@@H](C(N)=O)NC(=O)[C@H](Cc2c[nH]c3ccccc23)NC(=O)[C@H](CCCNC(=N)N)NC(=O)[C@@H](Cc2ccccc2)NC(=O)[C@H](Cc2c[nH]cn2)NC1=O [copper-64 labelled],,,"female C57 mouse, B16/F1 melanoma, spleen","intravenous, 0.037 MBq, 4 h",tissue uptake,1.12 ± 0.26 %ID/g
O=C([O-])CN1CCN(CC(=O)[O-])CCN(CC(=O)NCCc2ccc3c(c2)C2C=CCC2C(c2cc4c(cc2Br)OCO4)N3)CCN(CC(=O)[O-])CC1.[111In+3] (stereo not shown),,,"mouse, Hec50 endometrial tumour, stomach",0.5 h post injection,tissue uptake,6.8 ± 0.99 %ID/g
CN(C)c1ccc(-c2nc3ccc(OCCCCCN4CCN5CCN(CC4)CC(=O)[O][Al]([18F])[O]C(=O)C5)cc3s2)cc1,,,"ICR mouse, lung","intravenous, 60 min",tissue uptake,1.12 ± 0.26 %ID/g
CCCN(CC(=O)N(CCC)CC(=O)N(CCC)CC(=O)N(CCC)CC(=O)N(CC(=O)N(CCC)CC(=O)N(CCC)CC(=O)N(CCC)CC(=O)N(CCC)CC(=O)N(CC(N)=O)Cc1cn(CCCNC(=O)CCCOc2cccc(-c3nc4ccc(-c5nc6ccc(N7CCN(C)CC7)cc6[nH]5)cc4[nH]3)c2)nn1)Cc1cn(CCCNC(=O)CCCOc2cccc(-c3nc4ccc(-c5nc6ccc(N7CCN(C)CC7)cc6[nH]5)cc4[nH]3)c2)nn1)C(=O)CNCc1cn(CCCNC(=O)CCCOc2cccc(-c3nc4ccc(-c5nc6ccc(N7CCN(C)CC7)cc6[nH]5)cc4[nH]3)c2)nn1,C2C12,flow cytometry,,"5 µM, 14 h",ligand- and PI-positive cells,5.8%
[64Cu+2].c1cnc(CNCc2ccc(CN3CCCN4CCNCCCN(CC4)CC3)cc2)nc1,CXCR4,,"NOD/SCID mouse, U87 and U87-stb-CXCR4 xenografts, blood","iv, 90 min, ex vivo",tissue uptake,1.42 ± 0.21 %ID/g
CCCC[C@H](NC(=O)CNC(=O)CNC(=O)CN1CCN(CC(=O)O)CCN(CC(=O)O)CC1)C(=O)N[C@H]1CC(=O)NCCCC[C@@H](C(N)=O)NC(=O)[C@H](Cc2c[nH]c3ccccc23)NC(=O)[C@H](CCCNC(=N)N)NC(=O)[C@@H](Cc2ccccc2)NC(=O)[C@H](Cc2c[nH]cn2)NC1=O [copper-64 labelled],,,"female C57 mouse, B16/F1 melanoma, liver","intravenous, 0.037 MBq, 24 h",tissue uptake,0.53 ± 0.07 %ID/g
CC(C)[C@H](NC(=O)[C@@H]1CCCN1C(=O)[C@H](CCCNC(=N)N)NC(=O)[C@H](CS)NC(=O)[C@H](Cc1c[nH]c2ccccc12)NC(=O)[C@H](CCCNC(=N)N)NC(=O)[C@@H](Cc1ccccc1)NC(=O)[C@H](Cc1c[nH]cn1)NC(=O)[C@H](CCC(=O)O)NC(=O)[C@H](CS)NC(=O)[C@H](CS)NC(=O)[C@@H]1CC(=O)N[C@@H](CCCNC(=N)N)C(=O)NCC(=O)N[C@@H](CC(=O)O)C(=O)N[C@H](Cc2ccc(O)cc2)C(=O)N1)C(N)=O [technetium-99m labelled],,,"C57 mouse, female, B16/F1 melanoma, liver","intravenous, 0.037 MBq, 2 h",tissue uptake,2.47 ± 0.2 %ID/g
O=C(O)C1CN(Cc2ccc(-c3noc(-c4ccc(OCC[18F])c(C(F)(F)F)c4)n3)cc2)C1,,,"male Sprague-Dawley rat, lung","intravenous, 30 min",tissue uptake,0.413 ± 0.005 %ID/g
OCc1cn(Cc2ccc(-c3noc(-c4ccc(OCC[18F])c(C(F)(F)F)c4)n3)cc2)nn1,,,"female Lewis rat, muscle","intravenous, 120 min",tissue uptake,0.47 ± 0.02 %ID/g
CC(C)[C@H](NC(=O)[C@@H]1CCCN1C(=O)[C@H](CCCNC(=N)N)NC(=O)[C@H](CS)NC(=O)[C@H](Cc1c[nH]c2ccccc12)NC(=O)[C@H](CCCNC(=N)N)NC(=O)[C@@H](Cc1ccccc1)NC(=O)[C@H](Cc1c[nH]cn1)NC(=O)[C@H](CCC(=O)O)NC(=O)[C@H](CS)NC(=O)[C@H](CS)NC(=O)CNC(=O)[C@@H]1CC(=O)N[C@@H](CCCNC(=N)N)C(=O)NCC(=O)N[C@@H](CC(=O)O)C(=O)N[C@H](Cc2ccc(O)cc2)C(=O)N1)C(N)=O [technetium-99m labelled],,,"C57 mouse, female, B16/F1 melanoma, lung","intravenous, 0.037 MBq, 4 h",tissue uptake,1.13 ± 0.44 %ID/g
CCCC[C@H](NC(=O)CNC(=O)CNC(=O)CN1CCN(CC(=O)O)CCN(CC(=O)O)CCN(CC(=O)O)CC1)C(=O)N[C@H]1CC(=O)NCCCC[C@@H](C(N)=O)NC(=O)[C@H](Cc2c[nH]c3ccccc23)NC(=O)[C@H](CCCNC(=N)N)NC(=O)[C@@H](Cc2ccccc2)NC(=O)[C@H](Cc2c[nH]cn2)NC1=O [lead-203 labelled],,,"C57 mouse, blood","intravenous, 0.056 MBq, 2 h",tissue uptake,0.72 ± 0.12 %ID/g
CCCN(CC(=O)N(CCC)CC(=O)N(CCC)CC(=O)N(CCC)CC(=O)N(CC(=O)N(CCC)CC(=O)N(CCC)CC(=O)N(CCC)CC(=O)N(CCC)CC(=O)N(CC(=O)N(CCC)CC(=O)N(CCC)CC(=O)N(CCC)CC(=O)N(CCC)CC(=O)N(CC(N)=O)Cc1cn(CCCNC(=O)CCCOc2cccc(-c3nc4ccc(-c5nc6ccc(N7CCN(C)CC7)cc6[nH]5)cc4[nH]3)c2)nn1)Cc1cn(CCCNC(=O)CCCOc2cccc(-c3nc4ccc(-c5nc6ccc(N7CCN(C)CC7)cc6[nH]5)cc4[nH]3)c2)nn1)Cc1cn(CCCNC(=O)CCCOc2cccc(-c3nc4ccc(-c5nc6ccc(N7CCN(C)CC7)cc6[nH]5)cc4[nH]3)c2)nn1)C(=O)CNCc1cn(CCCNC(=O)CCCOc2cccc(-c3nc4ccc(-c5nc6ccc(N7CCN(C)CC7)cc6[nH]5)cc4[nH]3)c2)nn1,C2C12,flow cytometry,,"5 µM, 14 h",compound fluorescence-only positive cells,69%
[64Cu+2].c1ccc(CNCc2ccc(CN3CCCN4CCNCCCN(CC4)CC3)cc2)nc1,CXCR4,,"NOD/SCID mouse, U87 and U87-stb-CXCR4 xenografts, liver","iv, 90 min, no blocking dose, ex vivo",tissue uptake,58 ± 3.68 %ID/g
CN1C(=O)[C@@H](Cc2ccc(O)c(I)c2)NC(=O)CNC(=O)[C@H](Cc2ccc3ccccc3c2)NC(=O)[C@H](CCCNC(=N)N)NC(=O)[C@H]1CCCNC(=O)c1ccc(CNC(=O)CN2CCN(CC(=O)O)CCN(CC(=O)O)CCN(CC(=O)O)CC2)cc1 [lutetium-177 labelled],,refers to: 177Lu radioactivity,"female CB-17 SCID mice, Daudi xenograft, large intestine","intravenous, 0.16 nmol per mouse, 48 h",tissue uptake,0.25 ± 0.1 %ID/g

# Some of these lines once more:
Structure (SMILES),target or system,assay,system,setting,endpoint,value
O=C(O)C1CN(Cc2ccc(-c3noc(-c4ccc(OCC[18F])c(C(F)(F)F)c4)n3)cc2)C1,,,"male Sprague-Dawley rat, lung","intravenous, 30 min",tissue uptake,0.413 ± 0.005 %ID/g
Cn1c(=O)oc2ccc(-c3ccc(CC(C#N)NC(=O)C4CNCCCO4)c(F)c3)cc21 (stereo not shown),,refers to: monocyte count increased,human,"80 mg single dose, fasted",subjects with TEAE,16.7%
